Published values pooled from the literature.
Protocols differ between the studies behind these lines.
TYRO3: Tyrosine-protein kinase receptor TYRO3 (TYRO3, Homo sapiens, UniProt Q06418)
Chain of UniProt Q06418 (whole entry, looked up): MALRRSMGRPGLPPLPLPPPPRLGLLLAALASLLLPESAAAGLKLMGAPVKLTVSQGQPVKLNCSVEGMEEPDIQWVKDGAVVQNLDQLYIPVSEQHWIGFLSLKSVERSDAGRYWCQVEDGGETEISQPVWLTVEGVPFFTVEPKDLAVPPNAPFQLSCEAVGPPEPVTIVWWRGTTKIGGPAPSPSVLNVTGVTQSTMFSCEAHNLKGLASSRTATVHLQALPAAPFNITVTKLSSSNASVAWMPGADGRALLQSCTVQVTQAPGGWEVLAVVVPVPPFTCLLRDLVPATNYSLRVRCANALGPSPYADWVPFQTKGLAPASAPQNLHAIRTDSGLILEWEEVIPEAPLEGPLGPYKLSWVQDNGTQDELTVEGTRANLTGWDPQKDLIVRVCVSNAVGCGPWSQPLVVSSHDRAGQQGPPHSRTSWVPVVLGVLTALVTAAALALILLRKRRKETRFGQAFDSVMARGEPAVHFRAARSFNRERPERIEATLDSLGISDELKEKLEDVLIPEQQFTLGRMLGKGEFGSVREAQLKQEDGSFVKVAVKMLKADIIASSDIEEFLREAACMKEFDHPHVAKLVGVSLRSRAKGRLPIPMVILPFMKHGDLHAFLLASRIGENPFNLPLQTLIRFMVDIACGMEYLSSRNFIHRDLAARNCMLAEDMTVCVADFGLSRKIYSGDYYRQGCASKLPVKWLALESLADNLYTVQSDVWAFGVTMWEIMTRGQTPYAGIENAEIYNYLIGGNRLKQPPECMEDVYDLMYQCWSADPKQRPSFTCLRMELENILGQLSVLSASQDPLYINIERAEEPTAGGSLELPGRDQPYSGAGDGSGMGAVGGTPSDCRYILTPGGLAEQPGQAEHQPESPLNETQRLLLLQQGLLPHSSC
Chain of UniProt Q99640 (whole entry, looked up): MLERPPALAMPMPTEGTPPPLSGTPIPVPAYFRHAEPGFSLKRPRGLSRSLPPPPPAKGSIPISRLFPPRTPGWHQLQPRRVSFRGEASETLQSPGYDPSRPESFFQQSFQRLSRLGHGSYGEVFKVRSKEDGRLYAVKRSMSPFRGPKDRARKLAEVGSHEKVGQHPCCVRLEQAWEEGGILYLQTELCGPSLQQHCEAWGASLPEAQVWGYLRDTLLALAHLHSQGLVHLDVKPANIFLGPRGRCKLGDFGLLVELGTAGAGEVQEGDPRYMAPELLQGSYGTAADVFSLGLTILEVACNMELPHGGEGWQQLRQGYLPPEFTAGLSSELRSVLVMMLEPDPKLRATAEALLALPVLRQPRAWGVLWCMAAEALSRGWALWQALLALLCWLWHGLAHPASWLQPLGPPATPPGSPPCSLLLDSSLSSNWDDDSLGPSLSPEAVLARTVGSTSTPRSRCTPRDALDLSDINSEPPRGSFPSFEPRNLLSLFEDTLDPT
Chain of UniProt P06213 (whole entry, looked up): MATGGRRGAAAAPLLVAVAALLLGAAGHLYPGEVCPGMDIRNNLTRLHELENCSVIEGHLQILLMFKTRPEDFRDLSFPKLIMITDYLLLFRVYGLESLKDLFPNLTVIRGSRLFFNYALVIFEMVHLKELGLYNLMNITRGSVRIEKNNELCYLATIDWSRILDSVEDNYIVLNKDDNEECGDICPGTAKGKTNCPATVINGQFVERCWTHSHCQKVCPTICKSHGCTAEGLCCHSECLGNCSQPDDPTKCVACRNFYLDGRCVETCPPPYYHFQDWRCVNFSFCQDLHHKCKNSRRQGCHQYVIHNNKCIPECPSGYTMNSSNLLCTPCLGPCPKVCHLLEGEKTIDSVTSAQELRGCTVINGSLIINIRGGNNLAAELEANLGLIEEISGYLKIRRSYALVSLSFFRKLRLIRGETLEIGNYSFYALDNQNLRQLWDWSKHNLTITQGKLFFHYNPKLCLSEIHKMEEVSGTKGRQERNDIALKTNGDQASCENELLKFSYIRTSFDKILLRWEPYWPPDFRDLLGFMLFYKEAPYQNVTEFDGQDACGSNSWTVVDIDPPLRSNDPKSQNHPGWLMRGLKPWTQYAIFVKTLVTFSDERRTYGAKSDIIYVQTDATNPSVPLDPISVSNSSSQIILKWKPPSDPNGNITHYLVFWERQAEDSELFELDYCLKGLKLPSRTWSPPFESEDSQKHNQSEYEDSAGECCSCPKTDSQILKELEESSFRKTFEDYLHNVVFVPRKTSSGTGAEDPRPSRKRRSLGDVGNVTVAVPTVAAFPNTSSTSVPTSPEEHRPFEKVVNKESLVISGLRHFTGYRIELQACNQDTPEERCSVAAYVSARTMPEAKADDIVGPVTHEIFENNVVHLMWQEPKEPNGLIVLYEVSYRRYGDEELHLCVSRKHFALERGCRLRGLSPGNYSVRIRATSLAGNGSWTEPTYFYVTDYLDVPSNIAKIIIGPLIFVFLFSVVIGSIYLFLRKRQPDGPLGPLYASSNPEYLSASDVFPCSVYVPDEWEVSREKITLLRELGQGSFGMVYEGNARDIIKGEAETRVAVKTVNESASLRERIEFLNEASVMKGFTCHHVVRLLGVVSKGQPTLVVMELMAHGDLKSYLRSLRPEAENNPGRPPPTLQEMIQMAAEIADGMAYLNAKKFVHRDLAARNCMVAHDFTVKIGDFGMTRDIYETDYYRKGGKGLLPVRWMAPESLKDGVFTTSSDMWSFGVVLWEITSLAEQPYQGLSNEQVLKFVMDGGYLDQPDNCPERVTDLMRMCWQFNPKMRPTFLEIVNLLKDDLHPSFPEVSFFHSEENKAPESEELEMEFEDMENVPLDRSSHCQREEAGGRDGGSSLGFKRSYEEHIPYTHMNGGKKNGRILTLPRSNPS
Chain of UniProt Q01959 (whole entry, looked up): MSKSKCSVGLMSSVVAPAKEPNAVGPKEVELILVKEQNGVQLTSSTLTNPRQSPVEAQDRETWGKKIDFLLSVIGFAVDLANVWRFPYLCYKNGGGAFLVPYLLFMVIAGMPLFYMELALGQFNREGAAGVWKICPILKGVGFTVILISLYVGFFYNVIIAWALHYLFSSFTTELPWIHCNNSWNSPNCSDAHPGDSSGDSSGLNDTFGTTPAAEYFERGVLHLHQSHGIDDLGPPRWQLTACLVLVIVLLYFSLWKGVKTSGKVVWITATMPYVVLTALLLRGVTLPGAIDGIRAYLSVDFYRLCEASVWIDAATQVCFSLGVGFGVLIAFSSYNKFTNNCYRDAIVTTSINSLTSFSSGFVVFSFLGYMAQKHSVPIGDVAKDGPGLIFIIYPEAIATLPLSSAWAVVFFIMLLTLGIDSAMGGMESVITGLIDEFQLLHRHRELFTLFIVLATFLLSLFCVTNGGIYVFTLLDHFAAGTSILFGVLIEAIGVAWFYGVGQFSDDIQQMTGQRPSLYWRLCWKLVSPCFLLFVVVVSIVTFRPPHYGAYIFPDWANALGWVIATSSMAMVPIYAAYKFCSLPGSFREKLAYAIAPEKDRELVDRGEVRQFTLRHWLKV
Chain of UniProt P54760 (whole entry, looked up): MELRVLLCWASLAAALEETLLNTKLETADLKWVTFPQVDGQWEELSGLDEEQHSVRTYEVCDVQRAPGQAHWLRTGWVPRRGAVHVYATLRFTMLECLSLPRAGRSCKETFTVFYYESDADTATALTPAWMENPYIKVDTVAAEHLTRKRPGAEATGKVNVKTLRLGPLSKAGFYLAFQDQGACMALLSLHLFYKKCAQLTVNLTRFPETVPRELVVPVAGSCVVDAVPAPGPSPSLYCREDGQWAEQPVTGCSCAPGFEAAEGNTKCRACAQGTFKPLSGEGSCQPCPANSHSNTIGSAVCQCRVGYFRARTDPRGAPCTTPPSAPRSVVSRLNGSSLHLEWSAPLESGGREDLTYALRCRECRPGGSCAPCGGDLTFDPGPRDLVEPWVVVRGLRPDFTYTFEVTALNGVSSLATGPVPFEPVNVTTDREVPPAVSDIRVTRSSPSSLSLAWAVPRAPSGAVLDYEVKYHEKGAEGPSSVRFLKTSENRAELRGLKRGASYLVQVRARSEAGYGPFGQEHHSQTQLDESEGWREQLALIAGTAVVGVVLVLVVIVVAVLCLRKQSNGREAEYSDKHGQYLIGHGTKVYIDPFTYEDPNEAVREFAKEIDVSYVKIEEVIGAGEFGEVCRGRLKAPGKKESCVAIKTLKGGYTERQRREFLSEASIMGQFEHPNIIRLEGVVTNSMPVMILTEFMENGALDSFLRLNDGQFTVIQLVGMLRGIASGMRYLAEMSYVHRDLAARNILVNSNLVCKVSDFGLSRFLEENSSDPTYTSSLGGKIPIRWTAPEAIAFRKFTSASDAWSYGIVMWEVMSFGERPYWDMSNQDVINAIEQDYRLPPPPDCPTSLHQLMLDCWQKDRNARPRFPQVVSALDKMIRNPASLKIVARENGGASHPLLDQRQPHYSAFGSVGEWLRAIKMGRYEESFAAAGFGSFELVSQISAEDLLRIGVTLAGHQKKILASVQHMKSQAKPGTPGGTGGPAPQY

CNc1ncc2c(/C=C/C(=O)N3CCC(OC)CC3)nn(Cc3cccc(C(F)(F)F)c3)c2n1 — remaining activity (Ephrin type-B receptor 4 (EPHB4, Homo sapiens, UniProt P54760); kinase activity, inhibitor; 1 µM; reference: untreated control): 78%
O=C(NC1CCC1)c1ccc2nc(-c3cccc(NS(=O)(=O)NCCN4CCCCC4)c3)cn2c1 — remaining activity (Membrane-associated tyrosine- and threonine-specific cdc2-inhibitory kinase (PKMYT1, Homo sapiens, UniProt Q99640); enzyme activity; 10 µM): 83%
C=CC(=O)N1CCC[C@@H](n2nc(-c3ccc(Oc4ccccc4)cc3)c3c(N)ncnc32)C1 — remaining activity (Insulin receptor (INSR, Homo sapiens, UniProt P06213); 0.1 µM): 160%
O=C(O)c1ccc(Nc2ncc3c(n2)-c2ccc(Cl)cc2C(c2c(F)cccc2F)=NC3)cc1 — remaining activity (NEK3(h); kinase activity; 1 µM): 95%
N[C@@H]1CC[C@@H](c2ccc(Cl)c(Cl)c2)c2ccccc21 — remaining activity (Sodium-dependent dopamine transporter (SLC6A3, Homo sapiens, UniProt Q01959); dopamine uptake; 1e-05 µM, 0.03333 h, added: [3H]dopamine; reference: no inhibitor): 113%
COc1cc(F)ccc1-c1ncnc(Nc2cccc(C[S@](C)(=N)=O)c2)n1 — remaining activity (TYRO3; kinase activity; 10 µM, added: 10 µM ATP): 93%
Cc1cc(Nc2cc(N3CCN(C)CC3)nc(Sc3ccc(NC(=O)C4CC4)cc3)n2)[nH]n1 — remaining activity (TYRO3; kinase activity, KinaseProfiler; 0.03 µM, species human; reference: control): 109%
COc1cc(Nc2ncc3c(n2)-c2ccc(Cl)cc2C(c2c(F)cccc2OC)=NC3)ccc1C(=O)O — remaining activity (EPHB4; kinase activity; 1 µM): 29%
COc1cc(-c2cncc3c2CN(C)Cc2cc(N4CCNCC4)ccc2-3)cc(OC)c1OC — remaining activity (Serine/threonine-protein kinase BRSK1 (BRSK1, Homo sapiens, UniProt Q8TDC3); kinase activity; 1 µM, human enzyme, added: ATP 10 µM; reference: DMSO control): 104%

Excerpt of the above:
N[C@@H]1CC[C@@H](c2ccc(Cl)c(Cl)c2)c2ccccc21 — remaining activity (Sodium-dependent dopamine transporter (SLC6A3, Homo sapiens, UniProt Q01959); dopamine uptake; 1e-05 µM, 0.03333 h, added: [3H]dopamine; reference: no inhibitor): 113%
